Assay results collected from several papers.
± marks the error that the study gave.

CN[C@H](CC(C)C)C(=O)N[C@H]1C(=O)N[C@@H](CC(N)=O)C(=O)N[C@H]2C(=O)N[C@H]3C(=O)N[C@H](C(=O)N[C@H](C(=O)N[C@@H](CCCNC(=N)N)C(N)=O)c4cc(O)cc(O)c4-c4cc3ccc4O)[C@H](O)c3ccc(c(Cl)c3)Oc3cc2cc(c3O[C@@H]2O[C@H](CO)[C@@H](O)[C@H](O)[C@H]2O[C@H]2C[C@](C)(NCc3ccc(OCc4cn(CC(=O)N[C@H](C(=O)N[C@@H](CCN)C(=O)N[C@H]5CCNC(=O)[C@H]([C@@H](C)O)NC(=O)[C@H](CCN)NC(=O)[C@H](CCN)NC(=O)[C@H](CC(C)C)NC(=O)[C@@H](CC(C)C)NC(=O)[C@H](CCN)NC5=O)[C@@H](C)O)nn4)c(OC)c3)[C@H](O)[C@H](C)O2)Oc2ccc(cc2Cl)[C@H]1O
MIC (Staphylococcus simulans; broth microdilution; 22, cation-adjusted Mueller-Hinton broth): ≤ 0.003 µM

CC(C)CCCCCCCCC/C=C/C(=O)N[C@@H](CC(N)=O)C(=O)N[C@H]1CNC(=O)[C@@H]2CCCN2C(=O)[C@H](C(C)C)NC(=O)[C@@H](CN)NC(=O)CNC(=O)[C@H](CC(=O)O)NC(=O)CNC(=O)[C@H](CC(=O)O)NC(=O)[C@H](CC(=O)O)NC(=O)[C@H]2CCCCN2C1=O
MIC (Staphylococcus simulans; broth microdilution; 22, Mueller-Hinton broth, Mg2+ 10 mg/L; 16 h, 30 °C, added: Ca2+ 1.0 mM): 4 µg/mL

CCCCCC(=O)NCCCC[C@H](NC(=O)CCCCC)C(=O)N[C@@H](CCCCNC(=O)CCCCC)C(=O)NCC(=O)NCC(=O)NCC(=O)N[C@@H](CS)C(=O)N[C@@H](CCCNC(=N)N)C(=O)N[C@@H](CCCCN)C(=O)N1CCC[C@H]1C(=O)N[C@@H](CS)C(=O)N[C@@H](CCCNC(=N)N)C(=O)N[C@@H](CCCCN)C(=O)N1CCC[C@H]1C(N)=O
MIC (Candida albicans; broth microdilution; CGMCC 2.209, RPMI-1640; 48 h, 30 °C): 32 µM

CC1C=CC=CC(C)C2C=CC3CC(C)(O)C(Cl)C(C)C3C2C(=O)C(Cl)(Cl)C(=O)C(C)C(=O)O1 (stereo not shown)
MIC (Staphylococcus aureus; MSSA clinical isolate, susceptible): 0.05 µg/mL

CC(C)C[C@H](NC(=O)[C@H](CC(C)C)NC(=O)[C@H](CCCCN)NC(=O)CNC(=O)[C@H](CC(C)C)NC(=O)CNC(=O)[C@H](CO)NC(=O)[C@H](CC(C)C)NC(=O)[C@H](CC(C)C)NC(=O)[C@H](CO)NC(=O)[C@H](CCCCN)NC(=O)[C@H](CC(C)C)NC(=O)[C@H](CCCCN)NC(=O)[C@H](CCCCN)NC(=O)[C@H](CC(C)C)NC(=O)[C@H](CC(C)C)NC(=O)[C@H](CC(C)C)NC(=O)CNC(=O)[C@H](CO)NC(=O)[C@H](Cc1c[nH]c2ccccc12)NC(=O)[C@@H](N)CCCCN)C(=O)O
MIC (Candida glabrata; broth microdilution; ATCC 2001; 44 h, 37 °C): > 100 µM

C[N+]1=C2C(c3ccccc3)=[N+]([O-])c3ccccc3N2CCC1
MIC (Fusobacterium nucleatum): 2 to 16 µg/mL

CC(C)CCCCCCCCC/C=C/C(=O)N[C@@H](CC(=O)O)C(=O)N[C@H]1CNC(=O)[C@@H]2CCCN2C(=O)[C@H](C(C)C)NC(=O)[C@@H](CN)NC(=O)CNC(=O)[C@H](CC(=O)O)NC(=O)CNC(=O)[C@H](CC(=O)O)NC(=O)[C@H](CC(=O)O)NC(=O)[C@H]2CCCCN2C1=O
MIC (Staphylococcus aureus; broth microdilution; BR-VRSA strain 880, Mueller-Hinton broth, Mg2+ 10 mg/L; 16 h, added: Ca2+ 2.5 mM): 4 µg/mL

CC(C)C[C@H](NC(=O)[C@@H](NC(=O)[C@H](CCCNC(=N)N)NC(=O)[C@H](CCC(N)=O)NC(=O)[C@H](Cc1ccccc1)NC(=O)[C@H](Cc1ccc(O)cc1)NC(=O)[C@H](CC(N)=O)NC(=O)[C@H](Cc1c[nH]c2ccccc12)NC(=O)[C@@H](NC(=O)[C@H](CCCNC(=N)N)NC(=O)[C@H](CCCCN)NC(=O)[C@@H](N)Cc1ccccc1)C(C)C)C(C)C)C(=O)N[C@H](C(=O)N[C@@H](CCCCN)C(=O)N[C@@H](CCCCN)C(=O)N[C@@H](Cc1ccc(O)cc1)C(N)=O)C(C)C
MIC (Listeria monocytogenes; broth dilution; KCTC 13064): 50 µM

CC1(C)S[C@@H]2[C@H](NC(=O)[C@H](NC(=O)C3=C(O)C(c4ccccc4F)NC3=O)c3ccccc3)C(=O)N2[C@H]1C(=O)O (stereo partly shown)
MIC (Escherichia coli; broth microdilution; ATCC 35218, low-level TEM-1; added: clavulanic acid 6 µg/mL): 100 µg/mL

CCCCCCCC(=O)NCCCC[C@H](NC(=O)CCCCCCC)C(=O)N[C@@H](CCCCNC(=O)CCCCCCC)C(=O)NCC(=O)NCC(=O)NCC(=O)N[C@@H](CS)C(=O)N[C@@H](CCCNC(=N)N)C(=O)N[C@@H](CCCCN)C(=O)N1CCC[C@H]1C(=O)N[C@@H](CS)C(=O)N[C@@H](CCCNC(=N)N)C(=O)N[C@@H](CCCCN)C(=O)N1CCC[C@H]1C(=O)N[C@@H](CS)C(=O)N[C@@H](CCCNC(=N)N)C(=O)N[C@@H](CCCCN)C(=O)N1CCC[C@H]1C(N)=O
MIC (Candida albicans; broth microdilution; 58288, RPMI-1640; 48 h, 30 °C): 8 µM

O=C1NC2(CC2)COc2ncc(F)cc2[C@H]2COCCN2c2ccn3ncc1c3n2
organ-to-body weight ratio (Sprague-Dawley rat, male, kidneys; oral, 2.5 mg/kg/day, 4 weeks dosing, end of recovery): 0.637 ± 0.07%

CCCCCCCCCC(=O)NCCCC[C@H](NC(=O)CCCCCCCCC)C(=O)N[C@@H](CCCCNC(=O)CCCCCCCCC)C(=O)NCC(=O)NCC(=O)NCC(=O)N[C@@H](CS)C(=O)N[C@@H](CCCNC(=N)N)C(=O)N[C@@H](CCCCN)C(=O)N1CCC[C@H]1C(=O)N[C@@H](CS)C(=O)N[C@@H](CCCNC(=N)N)C(=O)N[C@@H](CCCCN)C(=O)N1CCC[C@H]1C(N)=O
MIC (Candida albicans; broth microdilution; 58288, RPMI-1640; 48 h, 30 °C): 64 µM

CC(C)[C@H](NC(=O)C(NC(=O)CC[C@H](N)C(=O)O)C(O)C(N)=O)C(=O)N(C)CC(=O)N[C@H](Cc1c[nH]c2ccc([N+](=O)[O-])cc12)C(=O)NC[C@@H]1NC(=O)[C@@H](Cc2c[nH]c3ccc([N+](=O)[O-])cc23)NC1=O (stereo partly shown)
MIC (Haemophilus influenzae; MAP7 multidrug resistant; 18 h, 37 °C): 1.6 µM

CC(=O)N[C@@H](CC(C)C)C(=O)N[C@H]1CSSC[C@@H](C(=O)N2CCC[C@H]2C(N)=O)NC(=O)[C@H](CCCCN)NC(=O)[C@H](C(C)C)NC(=O)[C@H](CCCCN)NC(=O)CNC(=O)[C@H](CC(C)C)NC(=O)[C@H](Cc2ccccc2)NC(=O)[C@H](CCCCN)NC(=O)[C@H](CC(C)C)NC(=O)[C@H](CCC(=O)O)NC(=O)[C@H](Cc2ccccc2)NC(=O)[C@H](CCCNC(=N)N)NC(=O)[C@H](CCCCN)NC(=O)[C@H](CC(C)C)NC(=O)[C@H](CC(=O)O)NC(=O)[C@@H]2CCCN2C(=O)[C@H](CCCCN)NC(=O)[C@H](C(C)C)NC(=O)[C@H](CCCCN)NC(=O)[C@H](CCCCN)NC(=O)[C@H](CCCCN)NC1=O
MIC (Aeromonas hydrophila; broth dilution; 24 h): > 40 µM

CCCCCCCCCCCC(=O)NCCCC[C@H](NC(=O)CCCCCCCCCCC)C(=O)N[C@@H](CCCCNC(=O)CCCCCCCCCCC)C(=O)NCC(=O)NCC(=O)NCC(=O)N[C@@H](CS)C(=O)N[C@@H](CCCNC(=N)N)C(=O)N[C@@H](CCCCN)C(=O)N1CCC[C@H]1C(=O)N[C@@H](CS)C(=O)N[C@@H](CCCNC(=N)N)C(=O)N[C@@H](CCCCN)C(=O)N1CCC[C@H]1C(N)=O
MIC (Candida albicans; broth microdilution; 56452, RPMI-1640; 48 h, 30 °C): > 128 µM

CC[C@H](C)[C@H](NC(=O)[C@H](C)NC(=O)[C@@H](NC(=O)[C@H](CC(=O)O)NC(=O)[C@H](CCCCN)NC(=O)[C@H](CO)NC(=O)[C@@H](NC(=O)[C@H](CC(N)=O)NC(=O)[C@H](C)NC(=O)[C@@H](NC(=O)[C@H](CCC(=O)O)NC(=O)[C@H](CCCCN)NC(=O)[C@@H](NC(=O)[C@@H](NC(=O)[C@H](Cc1c[nH]cn1)NC(=O)[C@H](CCCCN)NC(=O)[C@@H](NC(=O)[C@H](CCCCN)NC(=O)[C@H](CCCCN)NC(=O)[C@@H](NC(=O)[C@H](CC(C)C)NC(=O)[C@H](CCCCN)NC(=O)[C@H](CC(N)=O)NC(=O)[C@H](Cc1ccccc1)NC(=O)[C@H](CCCNC(=N)N)NC(=O)[C@H](CCCCN)NC(=O)[C@H](CCCNC(=N)N)NC(=O)[C@H](Cc1ccccc1)NC(=O)CN)C(C)C)C(C)C)[C@@H](C)O)[C@@H](C)CC)[C@@H](C)O)C(C)C)C(C)C)C(=O)N[C@H](C(=O)N[C@@H](C)C(=O)NCC(=O)N[C@@H](CO)C(=O)NCC(=O)N[C@H](C(=O)N[C@@H](C)C(=O)N[C@H](C(=O)NCC(=O)N[C@@H](C)C(=O)N[C@@H](C)C(=O)N[C@@H](CCSC)C(N)=O)C(C)C)C(C)C)C(C)C
MIC (Listeria monocytogenes; DSM 20600, CAMHB): > 1020 µg/mL
